Measured values of several laboratories.
A part holds a random share of what one study measured.

Sample 1 — method: RNA Bind-n-Seq; molecule type: RNA; medium: in vitro; tested at: 365 nM; reference: no-protein control; direction: higher = stronger binding
Target: RNA binding protein fox-1 homolog 2, RRM domain, GST-SBP tag (RBFOX2, Homo sapiens, UniProt O43251-10, residues 100-194)
Notes: natural RNA segment, single round, ends assumed
Target sequence (chain): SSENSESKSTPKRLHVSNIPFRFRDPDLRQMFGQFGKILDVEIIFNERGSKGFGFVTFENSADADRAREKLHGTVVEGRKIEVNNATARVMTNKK
`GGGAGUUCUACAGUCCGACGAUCCUAAUACUCUUAACAUAGAUUAUGAAGUUAAGUGAAAUUUAUGGCUCUAACAGCAAAAUAAUUAAAGUGCCAUAGUUUCUCAAGUGACUAAAGUAGUUAUUAAAAUCAAGUGGAAUUCUCGGGUGCCAA`: “RBNS enrichment (R)” 3.46.
`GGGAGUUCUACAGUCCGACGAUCACACAGCAUACUGUUCAUUAAUAGUAUUUUAAAAAAAUUGUUUUUCAAAUGUCACCAAUAAAAGUUUUGGCAGGAAGCUUGUUGCGGCAUUGAUCUAACCUUUUUCCCCCUGGAAUUCUCGGGUGCCAA` — result for “RBNS enrichment (R)”: 0.948.
`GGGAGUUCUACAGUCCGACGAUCCUGGGCAAGGCUGGAGGUACUGUAGAGAAUCCAGCUUGGGCCACUGCUUCCAUGUAGAGAAGUGGGACAGCAGGCCCUCCUUGGAGUUUCUGCACAGGUUUAGGUGAGUAUGGAAUUCUCGGGUGCCAA`: “RBNS enrichment (R)” 0.511.
Under “RBNS enrichment (R)”, `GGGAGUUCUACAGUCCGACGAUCGUAAUCACUGGAUUUCAAAACCAUGUUUUAGCCCUUCAUUAAUGAAGCCUGUUGUACAGAUUUAGAGUCUUACAAUAUGAGGGAAGUUGGUUCUGGGAAGGUAAGAUGUAUGGAAUUCUCGGGUGCCAA` is recorded as 0.836.
`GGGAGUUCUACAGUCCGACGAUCCCAGUUUCUCCUGUACAAAUCCCUGGCUCCUCGUGGGUCCUCGGGACCCGUACCAUACCUGCAAUGGUGUACAGGGCCGUAAUGGCGAGCGUGAGGAUGGUGGACAGGUAUGGAAUUCUCGGGUGCCAA`: “RBNS enrichment (R)” 0.348.
`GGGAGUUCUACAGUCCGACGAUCGGGGGCAGUGCCGUCAUCUCCCUGGAGGGCAAGCCUUUGUGAGCCCCUUCUGGCCCCCUGCCUGGAGCAUCUGGCAGCCCCACACCUGCCCUUGGGGGUUGCAGGCUGCCUGGAAUUCUCGGGUGCCAA`: “RBNS enrichment (R)” 0.701.
For `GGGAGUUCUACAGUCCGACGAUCUGGCUGACCCGAGCGAGGUAUUAUCUCGGUCUUCAGCCGCUGGAGUUUCAGGGCUGGGCAGCAGGUUACUGGAGAGGCAGGCAAGAAGCGUCCUUACCUUCUCUCAUUCCUGGAAUUCUCGGGUGCCAA`, “RBNS enrichment (R)” read 0.369.
`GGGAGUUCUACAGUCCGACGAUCCAUGCUCUGUGCACAGGCACAGAGGACAUCUAACAAGAUCAUCGGACCCUAAUGCAAGUUCCAUGUUCACAGAAAAUUCAUGCACUCUGCGCAAACAGGACGAAAUGGUUUGGAAUUCUCGGGUGCCAA` — result for “RBNS enrichment (R)”: 0.341.

Sample 2 — method: protein binding microarray; molecule type: double-stranded DNA, one strand shown; medium: in vitro; tested at: not given; reference: not given; direction: higher = stronger binding
Target: Histone acetyltransferase KAT6A, both winged helices, GST fusion (KAT6A, Homo sapiens, UniProt Q92794, residues 1-181)
Notes: 8-mer, flanks averaged, mean of 2 arrays, mostly near background
Construct (chain): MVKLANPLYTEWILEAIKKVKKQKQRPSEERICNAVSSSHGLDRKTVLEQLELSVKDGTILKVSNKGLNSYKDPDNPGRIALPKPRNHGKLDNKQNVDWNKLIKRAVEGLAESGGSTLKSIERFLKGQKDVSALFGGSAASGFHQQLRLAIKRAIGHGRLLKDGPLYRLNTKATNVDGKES
The E-score of `CGTATCGC` is reported as 0.268.
The E-score of `CATCGTTA` is reported as -0.115.
With `AATTCCAT` the E-score was -0.0662.
For `AGAAGCGG`, the E-score was 0.157.
For `AAAGCGTC`, the E-score was 0.0714.
The E-score of `CATTCATC` is reported as -0.159.
`ATCGCAAC` gave an E-score of -0.0169.
`ACGATAGC` has an E-score of 0.0527.
`GATTTACA` gave an E-score of -0.0173.
With `CAAGCAGC` the E-score was -0.204.

Sample 3 — method: universal PBM; molecule type: double-stranded DNA, one strand shown; medium: in vitro; tested at: 600 nM; direction: higher = stronger binding
Target: Sal-like protein 4, full length isoform A (SALL4, Homo sapiens, UniProt Q9UJQ4, residues 1-1053)
UniProt Q9UJQ4, sequence (whole entry, looked up): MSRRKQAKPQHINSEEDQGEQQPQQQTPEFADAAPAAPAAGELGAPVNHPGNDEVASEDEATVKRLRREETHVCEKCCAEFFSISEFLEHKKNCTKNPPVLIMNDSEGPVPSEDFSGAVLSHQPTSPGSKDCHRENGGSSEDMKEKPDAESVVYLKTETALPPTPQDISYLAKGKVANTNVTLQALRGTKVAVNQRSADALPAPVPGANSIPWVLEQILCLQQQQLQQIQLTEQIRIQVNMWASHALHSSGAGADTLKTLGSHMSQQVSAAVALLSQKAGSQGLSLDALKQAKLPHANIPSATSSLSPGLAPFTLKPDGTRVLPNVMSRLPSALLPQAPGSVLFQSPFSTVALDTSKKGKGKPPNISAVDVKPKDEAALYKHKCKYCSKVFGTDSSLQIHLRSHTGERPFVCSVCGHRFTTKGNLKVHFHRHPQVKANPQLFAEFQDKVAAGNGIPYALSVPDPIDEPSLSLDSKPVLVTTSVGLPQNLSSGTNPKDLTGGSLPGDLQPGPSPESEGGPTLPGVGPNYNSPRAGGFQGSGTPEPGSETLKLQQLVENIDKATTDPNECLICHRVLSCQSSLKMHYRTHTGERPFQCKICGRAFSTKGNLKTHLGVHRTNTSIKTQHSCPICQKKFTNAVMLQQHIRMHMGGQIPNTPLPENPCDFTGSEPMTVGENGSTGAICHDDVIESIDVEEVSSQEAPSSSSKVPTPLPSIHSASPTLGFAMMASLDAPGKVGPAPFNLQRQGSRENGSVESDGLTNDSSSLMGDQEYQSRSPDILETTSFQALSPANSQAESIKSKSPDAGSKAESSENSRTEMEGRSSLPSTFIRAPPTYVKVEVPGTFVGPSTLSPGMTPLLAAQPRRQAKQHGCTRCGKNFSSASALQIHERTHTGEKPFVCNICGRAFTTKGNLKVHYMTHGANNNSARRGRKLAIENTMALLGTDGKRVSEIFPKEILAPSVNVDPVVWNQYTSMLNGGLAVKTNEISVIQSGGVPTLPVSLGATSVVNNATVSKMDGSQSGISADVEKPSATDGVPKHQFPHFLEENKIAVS
Notes: 8-mer, flanks averaged, mean of replicates
For `ATGAATCG`, the E-score was 0.032.
`CGAGGCGA` has an E-score of -0.259.
With `AACGGCCG` the E-score was -0.21.
With `ATTTTGCA` the E-score was 0.291.
`GGGTCCCA` gave an E-score of -0.263.
For `AGGTTGCG`, the E-score was -0.163.
The E-score of `GTGTTTGA` is reported as 0.169.
The E-score of `AGCATCGC` is reported as -0.221.
`AGGTAACC` has an E-score of -0.127.
The E-score of `TCGCTTAA` is reported as 0.112.
For `TAGGACTA`, the E-score was 0.0437.
`CGAGAATA` has an E-score of 0.149.

Further values, each from its own experiment
The fold induction of `PhoQ, residues 284 288 289 292 302 303 SSTLLI` is reported as 0.88 (PhoP, residues 12 14 15 18 19 SYFRT (Escherichia coli, UniProt P23836); Sort-seq, refers to: YFP reporter; E. coli; PhoQ-PhoP variant library, together with: 10 µM Mg2+; reference: high Mg2+ state, higher = stronger signaling).

A few entries again (sample 3):
The E-score of `GTGTTTGA` is reported as 0.169.
The E-score of `AGCATCGC` is reported as -0.221.
With `AACGGCCG` the E-score was -0.21.
For `TAGGACTA`, the E-score was 0.0437.
